Experimental data gathered from unrelated publications.
“And” joins repeats or separate records; there may be more than shown. ± marks the error that the study gave.
Cell line: MDA-MB-231

SMILES = COc1ccc2c(c1)NC(=O)CN2c1nc(C)nc2c1CCC2; test = cell growth, MTS; IC50 = 0.001 to 0.004 µM
SMILES = CN(C)c1ccc2cc(C(=O)NS(=O)(=O)c3ccccc3-c3ccccc3)oc2c1; test = cell proliferation; conditions = 144 h; IC50 = > 20 µM
SMILES = COc1cc(Cl)c(Oc2ccccc2C)cc1-n1c(=O)cc(C(F)(F)F)[nH]c1=O; IC50 = ~25 µM
SMILES = COc1ccc2c(c1)C(=O)C(=O)N2CCn1cnc2c(N)ncnc21; test = cell growth, SRB; conditions = 72 h; IC50 = 46 ± 10.5 µg/mL
SMILES = Cc1c(Cc2ccccc2)c(=O)oc2c(C)c(OCC(=O)NN=Cc3ccc([N+](=O)[O-])cc3)ccc12; test = cell viability, MTT; IC50 = 24.2 µM
SMILES = COc1cc(C#N)c(Oc2ccccc2C)cc1-n1c(=O)cc(Br)[nH]c1=O; IC50 = ~30 µM
SMILES = C[C@@H]1CC[C@@H]([C@](C)(O)CNCc2cccc3ccccc23)[C@H](OCc2ccccc2)C1; test = cell growth, inhibitor, MTT; conditions = 72 h; IC50 = 25 µM
SMILES = CC1=CC(=O)C(C(C)C)=CC1=O; test = cell growth, SRB; conditions = 48 h; IC50 = no effect
SMILES = O=C(NNS(=O)(=O)c1ccccc1)c1ccc2oc3ccccc3c2c1; IC50 = ~30 µM
SMILES = Nc1ncnc2c1ncn2CCN1C(=O)C(=O)c2ccccc21; test = cell growth, SRB; conditions = 72 h; IC50 = 64.7 ± 3.78 µg/mL
SMILES = COc1ccc(CNC[C@@](C)(O)[C@@H]2CC[C@@H](C)C[C@H]2OCc2ccccc2)cc1; test = cell growth, inhibitor, MTT; conditions = 72 h; IC50 = 5.73 µM
SMILES = C=CCNC(=S)NNC(=O)COc1ccc2c(C)c(CC)c(=O)oc2c1C; test = cell viability, MTT; IC50 = 241 µM
SMILES = Nc1ncnc2c1ncn2CCN1C(=O)C(=O)c2cc(Cl)ccc21; test = cell growth, SRB; conditions = 72 h; IC50 = 6.71 ± 2.89 µg/mL
SMILES = COc1ccc(CNC[C@](O)(COCc2ccc(OC)cc2)[C@@H]2CC[C@@H](C)C[C@H]2OCc2ccc(OC)cc2)cc1; test = cell growth, inhibitor, MTT; conditions = 72 h; IC50 = 1.65 µM
SMILES = Nc1ncnc2c1ncn2CCN1C(=O)C(=O)c2cc(F)ccc21; test = cell growth, SRB; conditions = 72 h; IC50 = 27.1 ± 8.34 µg/mL
SMILES = CC(O)[C@@H]1CCCN1C(=O)[C@@H]1CCCN1C(=O)OC(C)(C)C (mixture of isomers); test = cell growth, sulforhodamine B; IC50 = 6.88 µM and 8.7 µM and 7.5 µM
SMILES = CNC(=O)c1ccn2c(-n3c(=O)cc(C(F)(F)F)[nH]c3=O)c(-c3ccccn3)nc2c1; IC50 = > 30 µM
SMILES = C[C@@H]1CC[C@@H]([C@](C)(O)CNCc2cccc(F)c2)[C@H](OCc2ccccc2)C1; test = cell growth, inhibitor, MTT; conditions = 72 h; IC50 = 9.94 µM
SMILES = O=C1NCCc2[nH]c(-c3ccncc3)cc21; test = MTS; conditions = NCI60 panel; IC50 = > 10 µM
SMILES = COc1cc(C#N)c(Oc2ccccc2C)cc1-n1c(=O)cc(C(F)(F)C(F)(F)F)[nH]c1=O; IC50 = ~26.7 µM
SMILES = CCNC(=S)NNC(=O)COc1ccc2c(C)c(CC)c(=O)oc2c1C; test = cell viability, MTT; IC50 = 331 µM
SMILES = O=C1C(=O)N(CCn2ncc3c(=O)[nH]cnc32)c2ccccc21; test = cell growth, SRB; conditions = 72 h; IC50 = 27.9 ± 12 µg/mL
SMILES = COc1cc(C#N)c(Oc2ccccc2C)cc1-n1c(=O)cc(C2CC2)[nH]c1=O; IC50 = ~30 µM
SMILES = C=CCOc1ccc2c(C)c(CC)c(=O)oc2c1C; test = cell viability, MTT; IC50 = 604 µM
SMILES = C[C@@H]1CC[C@@H]([C@@](C)(O)Cn2cnc3ccccc32)[C@H](OCc2ccccc2)C1; test = cell growth, inhibitor, MTT; conditions = 72 h; IC50 = 27.6 µM
SMILES = C#CCCCC[C@H](C)C[C@@H](C)C(=O)N1C(=O)OC[C@H]1Cc1ccccc1; test = cell growth, sulforhodamine B; IC50 = 128 µM and 91 µM and 85.8 µM
SMILES = CC(=NNC(=O)COc1ccc2c(C)c(Cc3ccccc3)c(=O)oc2c1C)c1ccc(Br)cc1; test = MTT; IC50 = 25.2 µg/mL
SMILES = COc1cc(C#N)c(Oc2ccccc2C)cc1-n1c(=O)cc(-c2ccccc2)[nH]c1=O; IC50 = ~30 µM
SMILES = Cc1c(Cc2ccccc2)c(=O)oc2c(C)c(OCC(=O)NN=Cc3ccccc3)ccc12; test = MTT; IC50 = 3.75 µg/mL
SMILES = C[C@@H]1CC[C@@H]([C@@](O)(CNCc2cccc3ccccc23)COCc2ccccc2)[C@H](OCc2ccccc2)C1; test = cell growth, inhibitor, MTT; conditions = 72 h; IC50 = 2.59 µM
SMILES = CCc1c(C)c2ccc(OCc3nnc(S)n3N)c(C)c2oc1=O; test = cell viability, MTT; IC50 = 219 µM
SMILES = C[C@@H]1CC[C@@H]([C@@](O)(CNCc2ccccc2)COCc2ccc(F)cc2)[C@H](OCc2ccc(F)cc2)C1; test = cell growth, inhibitor, MTT; conditions = 72 h; IC50 = 2.71 µM
SMILES = CCc1c(C)c2ccc(OCC=Cc3ccccc3)c(C)c2oc1=O; test = cell viability, MTT; IC50 = 579 µM
SMILES = COc1ccccc1CNC[C@@](C)(O)[C@@H]1CC[C@@H](C)C[C@H]1OCc1ccccc1; test = cell growth, inhibitor, MTT; conditions = 72 h; IC50 = 12.8 µM

A few entries again:
SMILES = Nc1ncnc2c1ncn2CCN1C(=O)C(=O)c2cc(Cl)ccc21; test = cell growth, SRB; conditions = 72 h; IC50 = 6.71 ± 2.89 µg/mL
SMILES = COc1ccc(CNC[C@](O)(COCc2ccc(OC)cc2)[C@@H]2CC[C@@H](C)C[C@H]2OCc2ccc(OC)cc2)cc1; test = cell growth, inhibitor, MTT; conditions = 72 h; IC50 = 1.65 µM
SMILES = Nc1ncnc2c1ncn2CCN1C(=O)C(=O)c2cc(F)ccc21; test = cell growth, SRB; conditions = 72 h; IC50 = 27.1 ± 8.34 µg/mL
SMILES = CC(O)[C@@H]1CCCN1C(=O)[C@@H]1CCCN1C(=O)OC(C)(C)C (mixture of isomers); test = cell growth, sulforhodamine B; IC50 = 6.88 µM and 8.7 µM and 7.5 µM
